Measurements of several laboratories.
Protocols differ between the studies behind these lines.
Organism: Staphylococcus aureus

Structure (SMILES) | assay | test system | conditions | MIC
CN[C@@H]1[C@H](O)[C@H](NC)[C@H]2O[C@]3(O)[C@H](O[C@@H]2[C@H]1O)O[C@H](C)C[C@H]3NC(=O)Cc1cscn1 | microbial growth, broth dilution | 8325 |  | 50 µg/mL
CC(C)C[C@@H](NC(=O)[C@@H](CCCNC(=N)N)NC(=O)[C@H](N)CCCNC(=N)N)C(=O)N[C@H](CC(C)C)C(=O)N[C@H](CCCNC(=N)N)C(=O)N[C@H](CCCCN)C(=O)N[C@H](CC(C)C)C(=O)N[C@H](CCCCN)C(=O)NCC(=O)N[C@H](CCCCN)C(=O)N[C@H](CCCCN)C(=O)N[C@H](CC(C)C)C(=O)N[C@H](Cc1ccc(O)cc1)C(=O)N[C@H](CC(C)C)C(=O)N[C@H](Cc1ccc(O)cc1)C(=O)N[C@H](Cc1ccccc1)C(=O)N[C@H](CCCCN)C(=O)N[C@H](CC(C)C)C(=O)N[C@H](CCC(N)=O)C(=O)N[C@H](CC(C)C)C(=O)N[C@H](CC(C)C)C(=O)N[C@H](CCCCN)C(=O)N[C@H](CCCCN)C(N)=O | broth microdilution | KCTC 1621, Mueller-Hinton broth | together with: NH4Cl 6 µM | 16 µM
CN[C@H](CC(C)C)C(=O)N[C@H]1C(=O)N[C@@H](CC(N)=O)C(=O)N[C@H]2C(=O)N[C@H]3C(=O)N[C@H](C(=O)N[C@H](C(=O)O)c4cc(O)cc(O)c4-c4cc3ccc4O)[C@H](O)c3ccc(c(Cl)c3)Oc3cc2cc(c3O[C@@H]2O[C@H](CO)[C@@H](O)[C@H](O)[C@H]2O[C@H]2C[C@](C)(NCc3ccc(OCc4cn(CC(=O)N[C@H](C(=O)N[C@@H](CCN)C(=O)N[C@H]5CCNC(=O)[C@H]([C@@H](C)O)NC(=O)[C@H](CCN)NC(=O)[C@H](CCN)NC(=O)[C@H](CC(C)C)NC(=O)[C@@H](CC(C)C)NC(=O)[C@H](CCN)NC5=O)[C@@H](C)O)nn4)c(OC)c3)[C@H](O)[C@H](C)O2)Oc2ccc(cc2Cl)[C@H]1O |  | MRSA USA300 |  | 0.095 µM
CC[C@H](C)[C@H](NC(=O)[C@@H](NC(=O)[C@H](C)NC(=O)[C@@H](NC(=O)[C@H](C)NC(=O)[C@@H]1CCCN1C(=O)CNC(=O)[C@H](C)NC(=O)[C@H](CC(N)=O)NC(=O)[C@H](CCCCN)NC(=O)[C@@H](NC(=O)[C@H](C)NC(=O)[C@H](CC(N)=O)NC(=O)[C@H](CCCNC(=N)N)NC(=O)[C@@H](NC(=O)[C@H](CCCNC(=N)N)NC(=O)[C@H](CCCNC(=N)N)NC(=O)[C@@H](NC(=O)[C@@H](NC(=O)[C@H](CCCCN)NC(=O)[C@H](CCC(=O)O)NC(=O)[C@H](CC(C)C)NC(=O)[C@H](CCCCN)NC(=O)[C@H](CCCCN)NC(=O)[C@H](CC(C)C)NC(=O)[C@@H]1CCCN1C(=O)[C@H](CCCCN)NC(=O)[C@H](Cc1c[nH]c2ccccc12)NC(=O)[C@@H](N)CCCNC(=N)N)C(C)C)C(C)C)C(C)C)C(C)C)C(C)C)C(C)C)C(=O)NCC(=O)N[C@@H](CC(=O)O)C(=O)O | broth microdilution | ATCC 29213, Mueller-Hinton broth | 16 to 20 h, 37 °C | 281 µg/mL
CC[C@H](C)[C@H](NC(=O)[C@H](Cc1c[nH]c2ccccc12)NC(=O)[C@H](CCCCN)NC(=O)[C@H](CC(C)C)NC(=O)[C@@H](NC(=O)[C@@H](NC(=O)CNC(=O)[C@H](CCCCN)NC(=O)[C@H](Cc1c[nH]cn1)NC(=O)[C@H](CCCCN)NC(=O)[C@H](Cc1c[nH]c2ccccc12)NC(=O)[C@H](C)NC(=O)[C@H](CC(C)C)NC(=O)[C@H](CO)NC(=O)[C@@H](NC(=O)[C@H](Cc1ccc(O)cc1)NC(=O)[C@H](CCCCN)NC(=O)[C@H](CCC(N)=O)NC(=O)CNC(=O)[C@H](CCCCN)NC(=O)[C@@H](NC(=O)[C@H](C)NC(=O)[C@H](CC(C)C)NC(=O)[C@H](Cc1ccccc1)NC(=O)[C@H](CCC(N)=O)NC(=O)[C@@H](NC(=O)[C@H](CC(C)C)NC(=O)[C@H](CCCCN)NC(=O)[C@H](CCSC)NC(=O)[C@H](Cc1ccccc1)NC(=O)[C@H](C)NC(=O)[C@H](C)NC(=O)[C@@H](N)CCSC)[C@@H](C)CC)[C@@H](C)O)C(C)C)[C@@H](C)O)[C@@H](C)CC)C(=O)N[C@@H](CC(N)=O)C(N)=O |  | EMRSA 12873 | 24 h, 37 °C | 32 µg/mL
CCCCCCCCCCCC(=O)C(C)C(=O)N1CCC[C@H]1C(=O)NC(C)(C)C(=O)NC(C)(C)C(=O)NC(C)(C)C(=O)N[C@](C)(CC)C(=O)NCCC(=O)N[C@@H](C)C(=O)N[C@](C)(CC)C(=O)N[C@@H](C)C(=O)N[C@@H](CC(C)C)C(=O)N[C@](C)(CC)C(=O)NCCC(=O)N[C@@H](C)C(=O)N[C@](C)(CC)C(=O)NCCC(=O)N[C@@H](C)C(=O)NC(C)(C)C(=O)NC(C)(C)C(=O)NC(C)(C)C(=O)N[C@@H](C)C(=O)N[C@@H](CC(=O)O)C(=O)O (stereo partly shown) |  | ATCC 29213 |  | > 128 µg/mL
CC[C@H](C)[C@H](NC(=O)[C@@H](CCCNC(=N)N)NC(=O)[C@H](CCCNC(=N)N)NC(=O)[C@H](CC(N)=O)NC(=O)[C@H](Cc1c[nH]c2ccccc12)NC(=O)[C@H](CCCNC(=N)N)NC(=O)[C@@H]1CCCN1C(=O)[C@H](CCCNC(=N)N)NC(=O)[C@@H]1CCCN1C(=O)[C@H](CC(C)C)NC(=O)[C@H](Cc1ccc(O)cc1)NC(=O)[C@@H]1CCCN1C(=O)[C@@H]1CCCN1C(=O)[C@H](CCCCN)NC(=O)[C@H](CC(=O)O)NC(=O)[C@@H](N)C(C)C)C(=O)N[C@@H](Cc1ccc(O)cc1)C(=O)N[C@@H](CC(N)=O)C(=O)N[C@H](CCCNC(=N)N)C(N)=O | broth microdilution | DSM 6247 | 18 h, 37 °C, 25% MHB2 | 64 µg/mL
N=C(N)NCCC[C@@H]1NC(=O)[C@H](CCCNC(=N)N)NC(=O)[C@@H](CCCNC(=N)N)NC(=O)[C@@H](CCCNC(=N)N)NC(=O)[C@@H](C(c2ccccc2)c2ccccc2)NC(=O)[C@@H](Cc2c[nH]c3ccccc23)NC(=O)[C@@H](C(c2ccccc2)c2ccccc2)NC1=O |  | 1195201, multidrug-resistant |  | 4 µg/mL
CC[C@H](C)[C@H](NC(=O)[C@H](CCCCN)NC(=O)[C@@H](NC(=O)[C@@H](NC(=O)[C@H](CC(C)C)NC(=O)[C@H](CCCNC(=N)N)NC(=O)[C@@H](NC(=O)[C@H](CC(C)C)NC(=O)[C@H](CCCNC(=N)N)NC(=O)CNC(=O)[C@H](Cc1ccccc1)NC(=O)[C@@H](N)CCCNC(=N)N)[C@@H](C)CC)[C@@H](C)CC)C(C)C)C(=O)N[C@@H](C)C(=O)N[C@@H](CCCNC(=N)N)C(=O)N[C@@H](CCCNC(=N)N)C(=O)N[C@@H](C)C(=O)N[C@@H](Cc1c[nH]cn1)C(=O)N[C@@H](CCCNC(=N)N)C(=O)N[C@@H](C)C(=O)N[C@@H](CCCNC(=N)N)C(=O)N[C@@H](CO)C(=O)N[C@@H](C)C(=O)N[C@H](C(=O)N[C@@H](CCCCN)C(=O)N[C@@H](C)C(=O)N[C@@H](C)C(=O)N[C@@H](CO)C(=O)N[C@@H](CC(N)=O)C(=O)N[C@H](C(=O)N[C@@H](C)C(=O)N[C@@H](C)C(=O)N[C@@H](CC(C)C)C(=O)N[C@@H](C)C(=O)N[C@@H](Cc1c[nH]cn1)C(=O)NCC(=O)N[C@@H](C)C(N)=O)C(C)C)C(C)C | broth microdilution |  | 18 h, 37 °C | ≤ 0.064 µM
CN[C@H](CC(C)C)C(=O)N[C@H]1C(=O)N[C@@H](CC(N)=O)C(=O)N[C@H]2C(=O)N[C@H]3C(=O)N[C@H](C(=O)N[C@H](C(=O)N[C@@H](CCCNC(=N)N)C(N)=O)c4cc(O)cc(O)c4-c4cc3ccc4O)[C@H](O)c3ccc(c(Cl)c3)Oc3cc2cc(c3O[C@@H]2O[C@H](CO)[C@@H](O)[C@H](O)[C@H]2O[C@H]2C[C@](C)(NCc3ccc(OCc4cn(CC(=O)N[C@H](C(=O)N[C@@H](CCN)C(=O)N[C@H]5CCNC(=O)[C@H]([C@@H](C)O)NC(=O)[C@H](CCN)NC(=O)[C@H](CCN)NC(=O)[C@H](CC(C)C)NC(=O)[C@@H](CC(C)C)NC(=O)[C@H](CCN)NC5=O)[C@@H](C)O)nn4)c(OC)c3)[C@H](O)[C@H](C)O2)Oc2ccc(cc2Cl)[C@H]1O | broth microdilution | VISA NRS402, tryptic soy broth | 20 to 24 h, 37 °C, 0.002% polysorbate 80 | 4 µg/mL
O=C(c1ccccc1O)c1[nH]c(Cl)c(Cl)c1-n1c(C(=O)c2ccccc2O)cc(Cl)c1Cl | microbial growth | BAA44 MRSA |  | 1.33 µM
CC1COC2=C1C(=O)C(=O)c1c2ccc2c1C(OC(=O)CNC(=O)C(N)CCC(=O)O)CCC2(C)C (mixture of isomers) |  | GDMCC 1.122 | 48 h | 31 µM
CC[C@H](C)[C@H](NC(=O)[C@H](Cc1c[nH]c2ccccc12)NC(=O)[C@H](Cc1ccc(O)cc1)NC(=O)[C@H](CCCCN)NC(=O)[C@H](CC(C)C)NC(=O)[C@@H](N)CO)C(=O)N[C@@H](CCCNC(=N)N)C(=O)N[C@@H](Cc1ccc(O)cc1)C(=O)N[C@@H](CCCCN)C(=O)N[C@@H](CCCNC(=N)N)C(=O)N[C@@H](CCC(N)=O)C(=O)NCC(=O)N[C@@H](C)C(=O)N[C@@H](C)C(=O)N[C@@H](CCCNC(=N)N)C(=O)N[C@@H](Cc1ccccc1)C(N)=O | broth dilution | ATCC 25923, Mueller-Hinton broth | 24 h, 37 °C | 25 µM
